Assay results gathered from unrelated publications.
Every numbered part comes from another study and shows a few of its results, in no order.

Series 1
Target: RNA binding protein fox-1 homolog 2, RRM domain, GST-SBP tag (RBFOX2, Homo sapiens, UniProt O43251-10, residues 100-194)
Technique: RNA Bind-n-Seq
Molecule type: RNA
Medium: in vitro
Tested at: 365 nM
Notes: natural RNA segment, single round, ends assumed
Baseline: no-protein control
Direction: higher = stronger binding
Shared flanks, not repeated: GGGAGUUCUACAGUCCGACGAUC … UGGAAUUCUCGGGUGCCAA
Construct (chain): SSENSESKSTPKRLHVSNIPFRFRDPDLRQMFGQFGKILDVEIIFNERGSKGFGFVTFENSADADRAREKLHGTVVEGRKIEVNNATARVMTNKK
Oligonucleotide	RBNS enrichment (R)
AUGCUGUACACCCUAUCCAUCUGUCAGGAGCUGGGGCAAGGAGCCAGAACCCUCUGCGCCUUGAGAUGAGUCUGCCAUGAGAACUUGCUCACGCUGCAGAGUCUCUGUGG	0.398
AUCAGGUUAGGCAGUAUAAAGAAUAGGACUUGUUUUUGUUUUUGUUUUGUUGCACUGAAGUUUGAUAAAUAGUGUUAUUGAGAGAGAUGUGUAAUUUUUCUGUAUAGACA	0.432
UUUGACUCCCACAUUGGUUGAUCACACAAAACUGUCAGCAUUUGGGUAAUCUGAUGUAUAGUUGUUUUGUUGCUGAUGUUUCCAUUGAAAUUUCAGCUCUGAGUUUGUGC	0.29
GCAGAGCCUCUGCAGCGAUCUUCUCCAACUGUUCUGUAAUCUCUACUCAACAAUAAGGUUUUAGUUACUGUAUACACUUAACCAAGUUGUGUGACCUAUGACCUACUUUG	0.349
GAAAACCUGAUGAGGGCAAACCAGUUAAACCUAACACCCUGCCUUGUCUGGGCUCAUCACCUCUCCCUAUCCCAGACUAACUUUACUGUGAAAUCCUACCACAUUCCAUG	0.476
CAGAGGAGGGUGGCUCUGUUUCCCAAGGCAAAGUUGAGACCAAUGGGCUGUCGGACUGAAGCCCCCUGAACAAGGGAUGAGGUACCAGGGAGAGCUUCCUCGCUGGACGG	0.396
AAAACAGUGUGUCACUGGUGUCACACUGGCAUCAUGGCACUGGCGUCAUGGCACUAAGCCACUCAGACCAGCUACCUGUGACCCUGGUUCUCCAAGAAGCAGACGUUGGU	0.148
UAAUAGCGAGUUUCUGGCCCCUGGGCAAUUUUGUACCUUGUAAUUAUCCUAUGGUGAUGCUGUUUCUCGUUGCUAAUGGCAUUAGUGCCCCUGUAUCCUAGUGAUAACUC	0.781

Series 2
Target: Histone acetyltransferase KAT6A, winged helix 2, GST fusion (KAT6A, Homo sapiens, UniProt Q92794, residues 85-181)
Technique: protein binding microarray
Molecule type: double-stranded DNA, one strand shown
Medium: in vitro
Tested at: not given
Notes: 8-mer, flanks averaged, mean of 2 arrays, mostly near background
Baseline: not given
Direction: higher = stronger binding
Target sequence (chain): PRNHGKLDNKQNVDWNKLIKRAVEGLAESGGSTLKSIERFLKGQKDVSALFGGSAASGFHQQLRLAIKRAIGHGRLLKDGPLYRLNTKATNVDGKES
Oligonucleotide	E-score
ACCGCCGA	0.119
CGTGCAAA	0.158
CAGCCTCA	-0.0174
CCTTTCTA	-0.0832
CTGCTGTC	0.0097
GATCGCAC	-0.00365
CAATCGCC	-0.00115
CGGGTATC	0.13
CGGGGAAG	0.0229
ATTAATGG	0.0544
TTACGGAA	0.0196
GGCCCGAC	0.0735
ACGACTAT	-0.104
CGCGGGGC	0.275
CTTTGATA	0.123
CATCCCAC	-0.0457
AAAGCTAA	0.0405
AAGAGGCA	0.155
AATCACCA	0.0345
CGAATTAC	-0.00852
ATATTGAT	0.113
GCCTTTAA	0.0452
GAAGAGTC	-0.154
CGTCTAAC	-0.0819
ACGACAAG	-0.111

Series 3
Target: Ras GTPase-activating protein-binding protein 1, RRM domain (G3BP1, Homo sapiens, UniProt Q13283)
Chain of UniProt Q13283 (whole entry, looked up): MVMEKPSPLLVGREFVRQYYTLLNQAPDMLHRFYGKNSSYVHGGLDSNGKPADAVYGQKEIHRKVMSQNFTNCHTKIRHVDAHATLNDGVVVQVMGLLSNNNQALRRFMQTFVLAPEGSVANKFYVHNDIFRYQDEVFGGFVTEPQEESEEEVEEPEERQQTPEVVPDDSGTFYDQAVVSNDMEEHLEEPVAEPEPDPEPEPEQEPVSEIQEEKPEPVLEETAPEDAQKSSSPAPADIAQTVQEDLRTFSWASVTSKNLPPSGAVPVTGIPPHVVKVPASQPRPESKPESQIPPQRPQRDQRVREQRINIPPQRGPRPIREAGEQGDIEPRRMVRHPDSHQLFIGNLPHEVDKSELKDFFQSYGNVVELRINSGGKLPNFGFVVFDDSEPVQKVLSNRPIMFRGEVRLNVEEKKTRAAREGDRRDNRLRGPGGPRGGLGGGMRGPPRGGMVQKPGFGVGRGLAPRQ
Technique: RNA Bind-n-Seq
Molecule type: RNA
Medium: in vitro
Tested at: 1 µM
Notes: whole 134-nt RNA, ends assumed
Added: 150 mM KCl
Baseline: input library
Direction: higher = stronger binding
Shared flanks, not repeated: GGGAGUUCUACAGUCCGACGAUC … UGGAAUUCUCGGGUGUCAAGG
Oligonucleotide	log2 enrichment
CCUGUGCUACACAUCGUAUGUACCGAAUCGGGUUUUUUGGGGUUUUUUGGGGUUUUUUGGAAAGUAUUAUGUUACGCCGUUCGGAUCUGC	-0.205
AAGUCCUGUGCUACACAUCGUAUGUACCGAAUCGGGGUGGGGAGGGGUUUUUGGGGAAAGUAUUAUGUUACGCCGUUCGGAUCUGCACUU	0.813
CACAGACAACACGCACCCACACAGACACAGAGGGAAGGGGUUGGGAUGGGGAUAGGGUGCACAGCAGGGCGGGGUAGGACCCCAGCCCCU	0.285
UCCUGUGCUACACAUCGUAUGUACCGAAUCGGGGAAAAAAGGAAAAAAGGAAAAAAGGGAAAGUAUUAUGUUACGCCGUUCGGAUCUGCA	0.0758
UAACUUUAGAGGAGGAUCUGAUGGAUAUGGCAGUGGACGUGGAUUUGGGGAUGGCUAUAAUGGGUAUGGAGGAGUACCUGGAGGUGGCAA	-0.236
ACCAUGCAGGUGGGCAUCUUUGGGAAGUGGGGCAAGGGGGGGAUAGGGGGGGGGGUAACACUUUGGGAACAGGUGGUCCCAGGUCGUUUC	1.1
CUCAAGUCCUGUGCUACACAUCGUAUGUACCGAAUCGGAGGUUUGGUUUUUGGAAAGUAUUAUGUUACGCCGUUCGGAUCUGCACUUCCA	-0.227
UCCUGUGCUACACAUCGUAUGUACCGAAUCAAAGUGUGUGUGUGUGUGUGUGUGUGUAAAAAAGUAUUAUGUUACGCCGUUCGGAUCUGC	0.0886
CAAGUCCUGUGCUACACAUCGUAUGUACCGAAUCGGGAGGGAAAGGGAAAAAGGGAAAGUAUUAUGUUACGCCGUUCGGAUCUGCACUUC	0.916

Series 4
Target: Interferon regulatory factor 7, full length, phosphomimetic (IRF7, Homo sapiens, UniProt Q92985, residues 1-503, S471D/S472D/S475D/S476D/S477D/S483D/S484D/S487D)
Chain of UniProt Q92985 (whole entry, unmodified, looked up): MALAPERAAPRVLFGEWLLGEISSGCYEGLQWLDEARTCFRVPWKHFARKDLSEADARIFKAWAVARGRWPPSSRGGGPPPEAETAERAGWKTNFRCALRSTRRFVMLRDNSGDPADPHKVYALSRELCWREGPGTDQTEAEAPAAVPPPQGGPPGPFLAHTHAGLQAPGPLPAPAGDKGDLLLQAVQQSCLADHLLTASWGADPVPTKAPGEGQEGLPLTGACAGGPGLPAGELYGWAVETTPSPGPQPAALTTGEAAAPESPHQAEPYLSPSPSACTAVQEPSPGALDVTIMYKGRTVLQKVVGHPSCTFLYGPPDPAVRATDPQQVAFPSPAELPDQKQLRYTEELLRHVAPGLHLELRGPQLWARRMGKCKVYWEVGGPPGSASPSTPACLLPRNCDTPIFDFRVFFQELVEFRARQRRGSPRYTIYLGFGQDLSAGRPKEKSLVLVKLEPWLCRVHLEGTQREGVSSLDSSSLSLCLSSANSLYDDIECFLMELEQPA
Technique: protein-binding microarray
Molecule type: double-stranded DNA, one strand shown
Medium: in vitro
Tested at: 2200 nM top
Notes: 60-bp whole probe
Added: salmon DNA 0.4 mg/ml
Baseline: random background probes
Direction: higher = stronger binding
Shared flanks, not repeated: GCCTAGCAC … GTCTTGATTCGCTTGACGCTGCTG
Oligonucleotide	fitted relative affinity [z-score]
GACGAAATGGGGTATCGAGACGTGCTA	0.358
GACGGTCTCGGTATCGCGACGTGCTAG	0.205
GAGGCTTTTTTTTTTTTTTTGTGCTAG	0.0578
GTAGAACTGAGTTTCGATTAGTGCTAG	3.8
TCAGATTTCGGGTATCGATTAGTGCTA	3.18
CTACTTCTCTTTTTGCTTTCGTGCTAG	4.36
TGAGATATCGGGACTGGATTAGTGCTA	-0.489
GACGGTCTCAGACTGGAGACGTGCTAG	-0.418
GACGAACTGCGTATCGAGACGTGCTAG	0.0352
TTAGAACTGGTGTTTCGATTAGTGCTA	2.08
GACGATATCAGACTTGAGACGTGCTAG	-0.103
GACGATTTCAGACGGGAGACGTGCTAG	0.184
GACGGTATCGACTATGGGGACGTGCTA	-0.365
GTAGAACTGGGGTTTCGATTAGTGCTA	2.21
GACGAACTAAGTATCGAGACGTGCTAG	-0.236
GACGGTGTCCTTTCCCTGACGTGCTAG	0.907
GACGGTATCGGGTTTAGGGACGTGCTA	-0.0246
GATGATCTCAGTATCGAGACGTGCTAG	0.208
ATTGCTTTCTCTTTCACTACGTGCTAG	7.42

For quick reference, copied from above (series 2):
Oligonucleotide	E-score
ACGACTAT	-0.104
CGCGGGGC	0.275
CTTTGATA	0.123
CATCCCAC	-0.0457
AAAGCTAA	0.0405
AAGAGGCA	0.155
AATCACCA	0.0345
